{"data": "Assay results pooled from the literature", "note": "Protocols differ between the studies behind these lines."}
{"Structure (SMILES)": "O=c1[nH]cc(C(c2ccc(Cl)cc2)c2c[nH]c(=O)[nH]c2=O)c(=O)[nH]1", "cell line": "Ba/F3", "setting": "1 µg/mL, 24 h", "viability": "> 90%"}
{"Structure (SMILES)": "O=C(c1cc2ccc(Cl)cc2s1)N(c1ccc(OCCN2CCCC2)cc1)c1ccc(OCCN2CCCC2)cc1", "cell line": "C2C12 differentiated myotubes", "setting": "100 µM, 72 h", "viability": "5%"}
{"Structure (SMILES)": "c1ccc(CN2CCOCCOCCN(CCCCCCCCCCCCCCN3CCOCCOCCN(CCCCCCCCCCCCCCN4CCOCCOCCN(Cc5ccccc5)CCOCCOCC4)CCOCCOCC3)CCOCCOCC2)cc1", "cell line": "human hepatocytes", "setting": "1 µM, 72 h", "viability": "80 to 100%"}
{"Structure (SMILES)": "O=c1[nH]cc(C(c2cccc(Cl)c2)c2c[nH]c(=O)[nH]c2=O)c(=O)[nH]1", "cell line": "Ba/F3", "setting": "5 µg/mL, 24 h", "viability": "> 90%"}
{"Structure (SMILES)": "CC(C)=CCc1c(O)cc(CO)cc1O", "cell line": "HepG2", "assay": "cell growth or viability, CCK-8", "setting": "50 µM, 24 h", "viability": "62.4%"}
{"Structure (SMILES)": "O=c1[nH]cc(C(c2cccc(C(F)(F)F)c2)c2c[nH]c(=O)[nH]c2=O)c(=O)[nH]1", "cell line": "Ba/F3", "setting": "1 µg/mL, 24 h", "viability": "> 90%"}
{"Structure (SMILES)": "CC(C)=CCN=C(N)NCCC[C@@H](NC(=O)CCCc1ccc(O)cc1)C(=O)N[C@@H](Cc1ccccc1)C(O)CC(=O)N[C@@H](Cc1ccc(O)cc1)C(=O)O (stereo in doubt)", "cell line": "U-87 MG", "assay": "alamarBlue", "setting": "50 µM, 20 h", "how to read": "reference: DMSO vehicle", "viability": "no effect"}
{"Structure (SMILES)": "O=c1[nH]cc(C(c2ccccc2Br)c2c[nH]c(=O)[nH]c2=O)c(=O)[nH]1", "cell line": "Ba/F3", "setting": "1 µg/mL, 24 h", "viability": "> 90%"}
{"Structure (SMILES)": "COc1cc([C@@H]2OC[C@@H]3[C@H]2CO[C@H]3c2cc(OC)c(O)c(OC)c2)cc(OC)c1O", "cell line": "HepG2", "assay": "cell growth or viability, CCK-8", "setting": "10 µM, 24 h", "viability": "94.5%"}
{"Structure (SMILES)": "COc1ccc([C@@H]2CC(=O)c3c(O)cc(O[C@@H]4O[C@H](CO[C@@H]5O[C@@H](C)[C@H](O)[C@@H](O)[C@H]5O)[C@@H](O)[C@H](O)[C@H]4O)cc3O2)cc1O", "cell line": "MRC5", "assay": "cell growth or viability, MTS", "setting": "50 µg/mL, 48 h", "viability": "85.8%"}
{"Structure (SMILES)": "CC(C)(C)c1ccc2[c](c1)[Au-]1([Cl])[c]3cc(C(C)(C)C)ccc3-c3cncc-2[n+]31", "cell line": "HL-60", "assay": "cell growth or viability, MTS", "setting": "1 µM", "viability": "72%"}
{"Structure (SMILES)": "CCN(c1nc(N[C@H](CC(N)=O)C(=O)NC)nc(N2CCN(c3ccccc3C#N)CC2)n1)C1CCCCC1", "cell line": "hBMEC", "assay": "PrestoBlue", "setting": "50 µM, 72 h", "viability": "> 95%"}
{"Structure (SMILES)": "C[C@@H]1O[C@@H](O[C@H]2[C@H](O[C@H]3CC[C@@]4(C)C(CC[C@]5(C)C4CC=C4C6CC(C)(C)CC[C@]6(C(=O)O[C@@H]6O[C@H](CO)[C@@H](O)[C@H](O)[C@H]6O)CC[C@]45C)[C@]3(C)CO)OC[C@H](O)[C@@H]2O)[C@H](O)[C@H](O[C@@H]2OC[C@@H](O)[C@H](O)[C@H]2O)[C@H]1O (some centres unmarked)", "cell line": "HepG2", "assay": "cell growth or viability, CCK-8", "setting": "20 µM, 24 h", "viability": "92.2%"}
{"Structure (SMILES)": "OCC1CSC(c2ccc(O)cc2O)S1 (centres unmarked)", "cell line": "B16-F10", "assay": "MTT", "setting": "5 µM, 24 h", "how to read": "reference: untreated", "viability": "99.9%"}
{"Structure (SMILES)": "CC(C)=CCc1c(O)cc2c(c1O)C(=O)OC2", "cell line": "HepG2", "assay": "cell growth or viability, CCK-8", "setting": "40 µM, 24 h", "viability": "87.3%"}
{"Structure (SMILES)": "C[C@H](N)C(=O)N[C@H]1CSSC[C@@H](C(=O)NCC(=O)O)NC(=O)[C@H](CCC(N)=O)NC(=O)[C@H](Cc2c[nH]cn2)NC(=O)[C@H](CCC(N)=O)NC(=O)[C@H]([C@@H](C)O)NC(=O)[C@H](CO)NC(=O)CNC(=O)[C@H]([C@@H](C)O)NC1=O", "cell line": "human epidermal keratinocytes", "assay": "MTT", "setting": "1 and 10 mg/mL, 30 and 60 min", "viability": "not toxic"}
{"Structure (SMILES)": "Cc1ccccc1C(c1c[nH]c(=O)[nH]c1=O)c1c[nH]c(=O)[nH]c1=O", "cell line": "Ba/F3", "setting": "5 µg/mL, 24 h", "viability": "> 90%"}
{"note": "A few entries again:"}
{"Structure (SMILES)": "O=c1[nH]cc(C(c2cccc(C(F)(F)F)c2)c2c[nH]c(=O)[nH]c2=O)c(=O)[nH]1", "cell line": "Ba/F3", "setting": "1 µg/mL, 24 h", "viability": "> 90%"}
